Experimental data of several laboratories.
Each line is one published result; not all experiments were run side by side. ± marks the error that the study gave.
Target: Sigma non-opioid intracellular receptor 1 (SIGMAR1, Homo sapiens, UniProt Q99720)
Sequence of UniProt Q99720 (whole entry, looked up): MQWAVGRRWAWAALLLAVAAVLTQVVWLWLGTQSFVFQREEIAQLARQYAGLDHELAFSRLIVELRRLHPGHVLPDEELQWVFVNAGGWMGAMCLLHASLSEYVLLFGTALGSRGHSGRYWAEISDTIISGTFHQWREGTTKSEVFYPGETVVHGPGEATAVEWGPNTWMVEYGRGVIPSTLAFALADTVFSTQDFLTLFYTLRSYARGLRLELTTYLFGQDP

SMILES | test | system | conditions | measurement | value
OC1Cc2ccccc2CC1N1CCC2(CC1)C(Br)=Cc1ccccc12 (racemic) | displacement, radioligand binding | HEK293 | added: [3H](+)-pentazocine | Ki | 0.5 ± 0.63 µM
COc1ccc(N=Nc2ccc3[nH]cc(CCN(C)C)c3c2)cc1 | binding, radioligand binding |  | ambient light | Ki | 1.08 µM
CCN1CCCC1CNC(=O)c1cc(S(=O)(=O)CC)c(N)cc1OC (centres unmarked) | binding |  |  | Ki | 4.42 µM
CCCC[C@@H](NC(=O)[C@@H](N)Cc1c(C)cc(O)cc1C)C(=O)NCC(=O)N[C@@H](Cc1ccc(F)cc1)C(=O)N(C)CCC[C@@]1(c2ccc(F)cc2)OCc2cc(C#N)ccc21 | binding |  |  | Ki | 1.9 µM
OC(CCN1CCCCC1)(c1ccccc1)C1CCCCC1 (centres unmarked) | binding |  |  | Ki | 0.106 µM
OC1Cc2ccccc2CC1N1CCC2(C=Cc3ccc(F)cc32)CC1 (racemic) | displacement, radioligand binding | HEK293 | added: [3H](+)-pentazocine | Ki | 0.0042 ± 0.0001 µM
COc1cc(Nc2ncc(F)c(Nc3ccc4c(n3)NC(=O)C(C)(C)O4)n2)cc(OC)c1OC |  |  |  | IC50 | > 10 µM
CCCC[C@@H](NC(=O)[C@@H](N)Cc1ccc(O)cc1)C(=O)NCC(=O)N[C@@H](Cc1ccc(F)cc1)C(=O)N(C)CCC[C@@]1(c2ccc(F)cc2)OCc2cc(C#N)ccc21 | binding |  |  | Ki | 0.047 µM

Repeated from above:
SMILES | test | system | conditions | measurement | value
OC1Cc2ccccc2CC1N1CCC2(C=Cc3ccc(F)cc32)CC1 (racemic) | displacement, radioligand binding | HEK293 | added: [3H](+)-pentazocine | Ki | 0.0042 ± 0.0001 µM
